# Results pooled from the literature.
# Compare with care: the assays were run in different laboratories. Numbers after ± are the reported error.
# CYP3A4: Cytochrome P450 3A4 (CYP3A4, Homo sapiens, UniProt P08684)
# Chain of UniProt P08684 (whole entry, unmodified, looked up): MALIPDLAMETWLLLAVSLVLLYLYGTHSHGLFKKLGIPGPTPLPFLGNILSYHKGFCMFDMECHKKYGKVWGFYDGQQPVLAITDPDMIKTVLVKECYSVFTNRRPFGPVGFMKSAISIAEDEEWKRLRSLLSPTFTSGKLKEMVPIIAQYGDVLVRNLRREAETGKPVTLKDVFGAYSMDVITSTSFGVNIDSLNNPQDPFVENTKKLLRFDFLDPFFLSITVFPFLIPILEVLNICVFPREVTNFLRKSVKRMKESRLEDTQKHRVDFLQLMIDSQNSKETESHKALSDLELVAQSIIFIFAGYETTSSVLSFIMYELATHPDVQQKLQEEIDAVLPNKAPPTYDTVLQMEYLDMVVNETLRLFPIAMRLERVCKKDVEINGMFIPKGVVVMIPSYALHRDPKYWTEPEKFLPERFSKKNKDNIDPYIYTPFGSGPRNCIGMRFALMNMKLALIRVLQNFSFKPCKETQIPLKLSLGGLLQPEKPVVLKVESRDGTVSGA
# SLCO1B1: Solute carrier organic anion transporter family member 1B1 (SLCO1B1, Homo sapiens, UniProt Q9Y6L6)
# Chain of UniProt Q9Y6L6 (whole entry, looked up): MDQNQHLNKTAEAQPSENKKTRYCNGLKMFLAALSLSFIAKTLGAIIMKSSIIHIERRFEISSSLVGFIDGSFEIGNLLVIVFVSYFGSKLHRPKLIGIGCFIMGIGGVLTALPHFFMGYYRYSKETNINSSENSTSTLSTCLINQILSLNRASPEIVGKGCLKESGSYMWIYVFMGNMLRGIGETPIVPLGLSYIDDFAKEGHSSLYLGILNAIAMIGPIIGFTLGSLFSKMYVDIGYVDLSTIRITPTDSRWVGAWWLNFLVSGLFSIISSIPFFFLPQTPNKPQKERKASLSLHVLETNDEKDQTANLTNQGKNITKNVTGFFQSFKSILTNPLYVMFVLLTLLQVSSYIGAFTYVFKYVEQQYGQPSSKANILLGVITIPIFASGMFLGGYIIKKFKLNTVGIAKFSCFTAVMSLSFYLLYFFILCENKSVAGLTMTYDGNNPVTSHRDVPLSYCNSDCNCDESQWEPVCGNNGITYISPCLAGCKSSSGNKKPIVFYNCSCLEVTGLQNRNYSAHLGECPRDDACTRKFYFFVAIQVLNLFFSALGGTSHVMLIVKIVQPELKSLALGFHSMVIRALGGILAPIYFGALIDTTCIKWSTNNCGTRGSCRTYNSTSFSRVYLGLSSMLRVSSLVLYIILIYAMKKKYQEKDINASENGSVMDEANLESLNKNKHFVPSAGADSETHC
# CYP3A4 S18F: Cytochrome P450 3A4 (CYP3A4, Homo sapiens, UniProt P08684, S18F)
# Chain of UniProt P02769 (whole entry, looked up): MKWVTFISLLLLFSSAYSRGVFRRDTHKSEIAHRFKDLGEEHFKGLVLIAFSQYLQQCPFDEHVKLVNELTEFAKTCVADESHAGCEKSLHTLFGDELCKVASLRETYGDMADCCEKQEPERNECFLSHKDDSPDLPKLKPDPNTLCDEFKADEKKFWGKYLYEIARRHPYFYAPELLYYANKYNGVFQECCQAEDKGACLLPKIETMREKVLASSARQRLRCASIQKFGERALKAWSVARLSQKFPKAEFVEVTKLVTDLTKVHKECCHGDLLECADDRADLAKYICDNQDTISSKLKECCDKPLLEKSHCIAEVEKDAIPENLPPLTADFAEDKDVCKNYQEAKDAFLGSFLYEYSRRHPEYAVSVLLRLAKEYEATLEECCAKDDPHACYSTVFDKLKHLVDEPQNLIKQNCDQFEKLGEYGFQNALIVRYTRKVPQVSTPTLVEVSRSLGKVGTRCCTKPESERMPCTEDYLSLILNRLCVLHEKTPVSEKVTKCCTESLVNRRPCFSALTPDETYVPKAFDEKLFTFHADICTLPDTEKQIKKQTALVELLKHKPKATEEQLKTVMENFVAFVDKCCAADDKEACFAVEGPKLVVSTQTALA
# Chain of UniProt O94956 (whole entry, looked up): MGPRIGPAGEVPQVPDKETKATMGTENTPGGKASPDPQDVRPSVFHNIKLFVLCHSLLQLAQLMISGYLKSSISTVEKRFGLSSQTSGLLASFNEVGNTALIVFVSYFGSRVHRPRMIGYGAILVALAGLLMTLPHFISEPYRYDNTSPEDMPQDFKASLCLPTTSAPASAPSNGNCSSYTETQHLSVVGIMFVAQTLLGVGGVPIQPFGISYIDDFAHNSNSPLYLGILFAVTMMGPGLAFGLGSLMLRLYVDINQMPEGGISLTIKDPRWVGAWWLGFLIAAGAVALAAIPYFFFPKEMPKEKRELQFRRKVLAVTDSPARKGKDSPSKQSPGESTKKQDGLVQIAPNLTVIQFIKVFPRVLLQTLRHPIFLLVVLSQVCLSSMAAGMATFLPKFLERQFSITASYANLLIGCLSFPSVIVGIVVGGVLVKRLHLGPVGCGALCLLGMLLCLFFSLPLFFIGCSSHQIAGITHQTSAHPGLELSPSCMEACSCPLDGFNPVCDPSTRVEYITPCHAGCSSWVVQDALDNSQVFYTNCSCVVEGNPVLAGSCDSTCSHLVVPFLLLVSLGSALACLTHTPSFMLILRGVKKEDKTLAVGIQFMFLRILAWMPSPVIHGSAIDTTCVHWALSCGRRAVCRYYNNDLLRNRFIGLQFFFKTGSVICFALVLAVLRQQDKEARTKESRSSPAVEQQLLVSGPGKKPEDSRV
# Chain of UniProt P11509 (whole entry, looked up): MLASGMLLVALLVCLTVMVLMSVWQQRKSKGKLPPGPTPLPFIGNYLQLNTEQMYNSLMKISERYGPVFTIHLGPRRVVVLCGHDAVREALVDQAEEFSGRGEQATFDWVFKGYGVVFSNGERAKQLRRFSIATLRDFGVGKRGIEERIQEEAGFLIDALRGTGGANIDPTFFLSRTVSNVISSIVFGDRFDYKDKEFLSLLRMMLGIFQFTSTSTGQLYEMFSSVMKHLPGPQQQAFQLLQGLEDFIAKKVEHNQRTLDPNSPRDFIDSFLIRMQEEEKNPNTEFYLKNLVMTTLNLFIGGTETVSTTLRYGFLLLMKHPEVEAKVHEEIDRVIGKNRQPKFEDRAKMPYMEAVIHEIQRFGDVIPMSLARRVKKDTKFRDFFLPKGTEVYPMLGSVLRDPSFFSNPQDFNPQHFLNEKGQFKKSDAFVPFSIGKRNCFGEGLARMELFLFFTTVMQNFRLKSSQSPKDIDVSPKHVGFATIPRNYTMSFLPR
# Chain of UniProt P20815 (whole entry, looked up): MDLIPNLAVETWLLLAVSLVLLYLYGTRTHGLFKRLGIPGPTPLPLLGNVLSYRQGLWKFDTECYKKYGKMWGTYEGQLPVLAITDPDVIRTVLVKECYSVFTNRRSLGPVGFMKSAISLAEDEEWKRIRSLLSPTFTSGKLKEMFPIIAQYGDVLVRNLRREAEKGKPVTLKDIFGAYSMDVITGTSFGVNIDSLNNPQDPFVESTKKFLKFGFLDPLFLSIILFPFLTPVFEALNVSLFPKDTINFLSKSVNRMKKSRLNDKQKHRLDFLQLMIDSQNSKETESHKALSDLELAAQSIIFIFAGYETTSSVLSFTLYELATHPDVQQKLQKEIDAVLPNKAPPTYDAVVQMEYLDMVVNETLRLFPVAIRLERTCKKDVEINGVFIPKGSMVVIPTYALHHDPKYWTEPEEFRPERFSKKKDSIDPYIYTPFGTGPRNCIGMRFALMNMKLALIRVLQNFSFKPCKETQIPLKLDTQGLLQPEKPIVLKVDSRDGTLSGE
# Chain of UniProt P13866 (whole entry, looked up): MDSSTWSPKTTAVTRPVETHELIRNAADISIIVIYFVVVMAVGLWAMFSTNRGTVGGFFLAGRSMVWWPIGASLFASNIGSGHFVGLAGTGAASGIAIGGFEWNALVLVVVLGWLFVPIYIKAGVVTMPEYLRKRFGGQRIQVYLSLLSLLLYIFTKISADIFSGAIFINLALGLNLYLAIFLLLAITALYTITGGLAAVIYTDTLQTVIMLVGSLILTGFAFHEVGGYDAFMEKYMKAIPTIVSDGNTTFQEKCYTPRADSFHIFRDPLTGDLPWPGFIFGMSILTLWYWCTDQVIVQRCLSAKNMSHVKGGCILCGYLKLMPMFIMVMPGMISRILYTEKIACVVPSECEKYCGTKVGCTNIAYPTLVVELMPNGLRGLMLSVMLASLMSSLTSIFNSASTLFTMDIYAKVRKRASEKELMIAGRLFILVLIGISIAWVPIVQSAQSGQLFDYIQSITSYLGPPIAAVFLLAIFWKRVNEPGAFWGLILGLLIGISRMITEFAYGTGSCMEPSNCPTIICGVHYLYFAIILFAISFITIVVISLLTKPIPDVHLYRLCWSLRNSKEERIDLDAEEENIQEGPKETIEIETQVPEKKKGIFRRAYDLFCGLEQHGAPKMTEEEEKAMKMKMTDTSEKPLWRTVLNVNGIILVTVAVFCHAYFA
# Chain of UniProt Q9UNU6 (whole entry, looked up): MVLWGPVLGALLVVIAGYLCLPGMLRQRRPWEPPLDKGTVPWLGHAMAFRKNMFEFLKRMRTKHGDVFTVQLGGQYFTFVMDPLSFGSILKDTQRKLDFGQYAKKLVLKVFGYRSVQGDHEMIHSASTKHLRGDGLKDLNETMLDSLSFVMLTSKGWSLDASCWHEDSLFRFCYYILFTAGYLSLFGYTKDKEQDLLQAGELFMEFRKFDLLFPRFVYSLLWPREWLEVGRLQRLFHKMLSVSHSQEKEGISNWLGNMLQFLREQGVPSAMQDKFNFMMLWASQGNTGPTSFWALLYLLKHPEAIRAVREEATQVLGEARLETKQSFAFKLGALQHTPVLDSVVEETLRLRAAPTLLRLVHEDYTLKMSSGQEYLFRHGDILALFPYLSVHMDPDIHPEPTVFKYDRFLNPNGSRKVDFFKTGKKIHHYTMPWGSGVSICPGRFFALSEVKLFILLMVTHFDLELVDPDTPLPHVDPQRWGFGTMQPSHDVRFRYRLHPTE
SMILES,target,assay,test system,setting,scale,measurement,result
CN(C)Cc1cc(OCCC[18F])ccc1Sc1ccccc1N,SERT,,"male Sprague Dawley rat, PCA-treated, hypothalamus","intravenous, 60 min",,tissue uptake,0.32 ± 0.05 %ID/g
C#C[C@]1(O)CC[C@H]2[C@@H]3CCC4=CC(=NO)CC[C@@H]4[C@H]3CC[C@@]21CC (mixture of isomers),CYP3A4,,"human, plasma","oral, dose not given, oral contraceptive, day 21, with: EDP-305 2.5 mg",,AUC(0-t),25.6 ng·h/mL
C=CC(=O)N1CCC([C@@H]2CCNc3c(C(N)=O)c(-c4ccc(Oc5ccccc5)cc4)nn32)CC1,SLCO1B1,"transport, measured: estradiol-17β-glucuronide uptake",HEK293 transfected,0.2 µM,reference: vehicle,remaining activity,97.9 ± 9.5%
COc1cc2c(Oc3ccc4[nH]c(C)cc4c3F)ccnc2cc1OCC1(N)CC1,"Cytochrome P450 3A5 (CYP3A5, Homo sapiens, UniProt P20815)",substrate,,"1 µM, 60 min, pH 7.4, 37 °C",,intrinsic clearance,0.31 µL/min/pmol
CC(=O)[C@H]1CC[C@H]2[C@@H]3CCC4=CC(=O)CC[C@]4(C)[C@H]3CC[C@]12C,CYP3A4 S18F,substrate,nanodiscs with CPR,two substrates bound,,NADPH oxidation rate,388 nmol/nmol P450/min
O=C(O)c1cc2cc(O)ccc2n1Cc1ccc(Cl)c(C(F)(F)F)c1,SLCO1B1,"estradiol 17β-glucuronide uptake, inhibitor",HEK293 expressing OATP1B1,"30 µM, with: [3H]-estradiol 17β-glucuronide",reference: DMSO control,remaining activity,0%
C#CCOc1ccc2ccc(=O)oc2c1,human CYP3A4,"enzyme inactivation, inactivator",reconstituted system,with: BFC O-debenzylation substrate,,KI,112 µM
OC[C@H]1O[C@@H](Oc2cc3c(O[C@@H]4O[C@H](CO)[C@@H](O)[C@H](O)[C@H]4O)cc(O)cc3[o+]c2-c2ccc(O)c(O)c2)[C@H](O)[C@@H](O)[C@@H]1O,"SLC5A1 (Homo sapiens, UniProt P13866)",,"Caco-2 BBe1, SLC5A1 siRNA knockdown","50 µM, 4 h",reference: scrambled siRNA over knockdown,transport rate reduction,6.45 fold
OC(Cn1cncn1)(Cn1cncn1)c1ccc(F)cc1F,"7-alpha-hydroxycholest-4-en-3-one 12-alpha-hydroxylase (Homo sapiens, UniProt Q9UNU6)",,,"80 µM, with: 7α-hydroxycholest-4-en-3-one",reference: no inhibitor,remaining activity,no inhibition
CC1=N[C@]2(C(=O)CO)[C@@H](C[C@H]3[C@@H]4C[C@@H](O)C5=CC(=O)C=C[C@]5(C)[C@H]4[C@@H](O)C[C@@]32C)O1,CYP3A4,"enzyme activity, inhibitor",pooled human liver microsomes,"30 min preincubation without NADPH, with: testosterone substrate",,IC50,> 50 µM
COCCc1ccc(OCC(O)CNC(C)C)cc1 (stereo not drawn),"Albumin (ALB, Bos taurus, UniProt P02769)",ultrafiltration,"Bos taurus, albumin solution","2 µg/mL, 60 min, with: atractylenolide III 0.1 µg/mL",,unbound fraction,0.698
Cc1coc2c1CC[C@@H](C)C2,"Cytochrome P450 2A6 (CYP2A6, Homo sapiens, UniProt P11509)",inactivator,,"5 µM, 10 min, pH 7.4, no NADPH",reference: time zero,remaining activity,100%
Cn1c(=O)[nH]c2ncn(C)c2c1=O,UDP-glucuronosyltransferases,,human cirrhosis patients,,reference: without cirrhosis,glucuronide metabolic ratio,decreased
NC(=O)N1c2ccccc2C=Cc2ccccc21,CYP3A4 S18F,substrate,nanodiscs with CPR,one substrate bound,,NADPH oxidation rate,195 nmol/nmol P450/min
CC(=O)c1cc(C(=O)N[C@@H](C)Cn2ccc(-c3ccc(C#N)c(Cl)c3)n2)[nH]n1,"SLCO2B1 (Homo sapiens, UniProt O94956)","transporter uptake, inhibitor",,,,IC50,> 10 µM

# Repeated from above:
SMILES,target,assay,test system,setting,scale,measurement,result
Cn1c(=O)[nH]c2ncn(C)c2c1=O,UDP-glucuronosyltransferases,,human cirrhosis patients,,reference: without cirrhosis,glucuronide metabolic ratio,decreased
NC(=O)N1c2ccccc2C=Cc2ccccc21,CYP3A4 S18F,substrate,nanodiscs with CPR,one substrate bound,,NADPH oxidation rate,195 nmol/nmol P450/min
